# Measurements gathered from unrelated publications.
# Every numbered part comes from another study and shows a few of its results, in no order. Changes are numbered by the printed parent chain.

# Series 1 — technique: DHFR PCA, deep sequencing; sample: yeast; together with: (+)-ABA 0 µM; baseline: wild-type fitted maximum; direction: higher = stronger binding
# Target: ABI1, truncated, D143A, DHFR fusion (Arabidopsis thaliana)
# Setting: methotrexate growth selection, single substitutions
# Starting sequence: PYL1, truncated, DHFR fusion (Arabidopsis thaliana); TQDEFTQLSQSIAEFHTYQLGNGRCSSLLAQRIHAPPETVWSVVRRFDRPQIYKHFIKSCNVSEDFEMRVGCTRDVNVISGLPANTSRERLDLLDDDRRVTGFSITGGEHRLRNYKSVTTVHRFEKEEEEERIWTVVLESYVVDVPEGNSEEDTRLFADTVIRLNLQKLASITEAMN
Change,relative binding score
T1D,26.8%
P50C,2.94%
E151C,11%
D75V,28.7%
V143L,-5.53%
V44G,1.43%
I79A,16.3%
L112E,-2.08%
F103P,0.963%
R99C,12.9%
E128A,27.4%
R49Y,4.19%
A158S,-9.46%
T17R,1.7%

# Series 2 — technique: RNA Bind-n-Seq; form: RNA; sample: in vitro; concentration: 365 nM; baseline: no-protein control; direction: higher = stronger binding
# Target: RNA binding protein fox-1 homolog 2, RRM domain, GST-SBP tag (RBFOX2, Homo sapiens, UniProt O43251-10, residues 100-194)
# Setting: natural RNA segment, single round, ends assumed
# Target sequence (chain): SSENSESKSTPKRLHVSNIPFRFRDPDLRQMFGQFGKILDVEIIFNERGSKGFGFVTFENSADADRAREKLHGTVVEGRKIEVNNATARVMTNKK
Oligonucleotide,RBNS enrichment (R)
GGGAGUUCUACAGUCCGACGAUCUCCUCCGUGCGCCUCAGACUCGGGGUGAGGGAGGCGGGCAGCCUCUCGCCAGCCUUCCCGUCCUUCAGUUCAACGACAUCUUUGGAGUGUUUUUGUUUUCUCUUCCAAGGUGGAAUUCUCGGGUGCCAA,0.224
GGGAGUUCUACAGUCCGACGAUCCCUGUGCUGGGGGUAGGGAGCCAACAGCACCCGUUUGUACAUAAAGGUCAUUCGUAUGUCACAUGUUUUAAACUGGGGUCUCUGUGUGUAUUUGUGUGUGUGUUCUACCUUGGAAUUCUCGGGUGCCAA,0.745
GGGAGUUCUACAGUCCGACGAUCUGUUUCAUUCACUGUGCACUUUGCUCAAAAUUUUAAAAAUACCAAUCACAAGGAUAAUAGAGUAGCCUAAAAUUACUAUUCUUGGUUCUUAUUUAAGUAUGGAAUAUUCAUGGAAUUCUCGGGUGCCAA,0.535
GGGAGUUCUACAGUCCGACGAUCUGUCCAUCCUCGCUGUCCUUUCCCUGUUCUCCCCCUGCCCCCCGUCUCUAUCCUCUGUGGCCUUCAGCUAAUUUCUGCUCCCCUGAGAUUCGUCCUUCAGCCCCAUCAUGUGGAAUUCUCGGGUGCCAA,0.775
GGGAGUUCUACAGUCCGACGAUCUGGCUAACAUCCAUAUGUAUAUAUCUUAUUUAUAAAUAAAAAUUGUAAAUGUCAGUUUCGGUAUCCCACAAAAAAGCCUGUCUCCGGCGUCUGUGGGGAAUCUCAGCAUUUGGAAUUCUCGGGUGCCAA,2.31
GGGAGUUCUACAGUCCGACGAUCAAAGUUGGCUGGACUGUUAUACUAUGAAUAUACUACGAAUUUGUAAACUAUCAUUAUAAAUUGAAGUGUAUAUGCUCAGUAUAUUGGCAUAUAUGUGUAAUUCCAGCACUUGGAAUUCUCGGGUGCCAA,0.28
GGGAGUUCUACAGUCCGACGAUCCAUUCACAGGGAAACCUCUUUCCUUCCUAUAAAGGAAAGAGGUUGAAUUGACUCACAUUUCCACAUGGCUUGGGAGGCCUCAGGAAACUUACAAUCAUGGCGGAGGGUGAUGGAAUUCUCGGGUGCCAA,0.351
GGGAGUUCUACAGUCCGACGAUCUUGUCUAUUAACUGUGAUAAUCUGACUUGAGUCAGAUUGAAUAUUUGGAGUGCUUCCCCAGAAUAACCACUUAUUUUUGAAGCUAUCAUGUGAAGUAUUUUUUUAAAACAUGGAAUUCUCGGGUGCCAA,0.793
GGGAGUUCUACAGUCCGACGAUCUGUUUUGGACUCCGUGUCUUCAGUGGUUUGUUAGUUACCAUUACGUAAACCUUGUCUGAGUAGUGUUCCGAGGUCUUGCCGUUCCGGAUCCCUCUGUCUGUUUAUGCCUGUGGAAUUCUCGGGUGCCAA,1.79
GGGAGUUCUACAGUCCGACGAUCUGUUUUGAUUCUUUGUUGUUGUUUUUAUUUUAAAAGGCACAAACUCUAGAUAUUAGUUGAAUGUUGAGGCUUUAACUUUUUCGGUGUCUUUCUACAACUGUGUUCUGUGAUGGAAUUCUCGGGUGCCAA,0.588
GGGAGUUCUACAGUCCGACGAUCCCCGAGAACUAUGAUCUUCCUAUCUGUCGCCUUGCCCACAGCUUCAGGAUGCUCUAAGUUGGAGUCAGCCGGGCUCGUUCAUCACUUCUUCGGUUGCUUUGCACCAGUAUUGGAAUUCUCGGGUGCCAA,0.769
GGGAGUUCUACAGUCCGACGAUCGGGUUGGAAGAAAUAUAACUGUAGGACCCAGGUGAGAAAAUGUCUUUCUCUCUAGCAGGCUUGGAGGGAAGGCCUUCUGGUCUACCUGGGAUUUUACAGAGUUUUUGAGAUGGAAUUCUCGGGUGCCAA,0.482

# Series 3 — target: CCNE2, cyclin fold, Cln2 fusion (human); technique: yeast growth competition, sequencing; sample: yeast; setting: strong parent motif; baseline: not given; direction: higher = stronger binding
# Starting sequence: CDKN1A docking peptide (human); SKACRRLFGPVDS
Change,normalised enrichment score
G9S,4.04
A3M,1.22
V11E,5.16
R6N,1.96
G9P,4.11
V11M,3.77
R6A,1.17
L7V,0.857
A3L,0.783
R6Y,1.08
K2F,2.34
L7H,0.0736
F8Q,0.195
V11K,3.15
R5A,0.275

# Series 4 — technique: competition protein-binding microarray; form: double-stranded DNA, one strand shown; sample: in vitro; concentration: 2 µM; together with: Cbf1 competitor, 0.05 µM; direction: higher = stronger binding
# Target: Phosphate system positive regulatory protein PHO4, full length, GST-tagged (PHO4, Saccharomyces cerevisiae, UniProt P07270, residues 1-312)
# Setting: whole 60-bp probe, lowest competitor level
# Construct (chain): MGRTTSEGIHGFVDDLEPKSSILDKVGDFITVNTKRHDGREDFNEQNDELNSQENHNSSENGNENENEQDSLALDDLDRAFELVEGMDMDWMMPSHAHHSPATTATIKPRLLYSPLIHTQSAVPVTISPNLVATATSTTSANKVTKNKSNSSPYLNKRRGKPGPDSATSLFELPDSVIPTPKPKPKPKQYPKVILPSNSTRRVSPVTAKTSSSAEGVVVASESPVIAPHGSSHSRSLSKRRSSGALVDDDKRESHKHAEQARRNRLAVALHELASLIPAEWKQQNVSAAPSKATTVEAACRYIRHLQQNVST
Oligonucleotide,fluorescence intensity [a.u.]
CATACCCAACCTTGTCACCCAACTTAAGATATTTGTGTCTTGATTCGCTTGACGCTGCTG,4000
TGCGCAACAACTTGGATTGTGGGTGTATGTCTAGAAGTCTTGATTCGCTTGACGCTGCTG,4750
CAATAAATCTTGTTCCTCGTGGCCGAATGGTTACGGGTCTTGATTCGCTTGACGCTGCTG,11200
GTCTTGTCTCATTGGCCCGTGGGTGTCCCCACTTCAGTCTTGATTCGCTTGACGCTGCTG,10300
CGAGATATGGCTAGACACATGGCCACAATAATATCTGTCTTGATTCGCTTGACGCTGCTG,10100
CTTTCCCGATCTTGTCACCCCACTTTAGCACATTTGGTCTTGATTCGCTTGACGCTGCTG,4510
CATTCAGTGCGTAACGACGCGAATAGGGCTTTGAAAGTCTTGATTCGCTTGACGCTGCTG,3380
TCGGACTAGACGCTGGGCGTGCATCGCCAGTGAAAAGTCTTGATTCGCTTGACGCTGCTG,6570
CACCAGCCGCCATTGAACGTGCAAACAGGCACCTGTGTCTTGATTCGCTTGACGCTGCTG,10300
CTTCTGTAAATTTGGGTAGTGGGTGGACGCGCCCCGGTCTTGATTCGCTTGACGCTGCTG,4820
AAATTACTAAGTTTTCACGTGACCTACCCCGTATGAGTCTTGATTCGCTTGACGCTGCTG,11600
CGTCCTAGTGATTGTGACGTGGGTGCCATGAGGAAGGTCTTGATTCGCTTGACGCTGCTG,8020
CGGGGTTAAGTTTTTCACGTGAGCTGCTTGCAGCAGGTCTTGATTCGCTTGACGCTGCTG,11300
GTCTTGTCTCATTTTCACGTGAGGTTCCCCACTTCAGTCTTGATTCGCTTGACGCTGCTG,9000
TCTATAATAACCTCCCATGTGAAAATACCAACCTCTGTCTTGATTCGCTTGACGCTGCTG,6250
TTTTACAGCTGCAATCAGGTGGATTCGTTTCTTCGAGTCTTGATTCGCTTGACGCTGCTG,3930
CTTCTGTAAATTTGAAAAGTGGGTGGACGCGCCCCGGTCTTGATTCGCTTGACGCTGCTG,4170
CAGCGAACCAAAGGCACCGTGAGTAGAGGTATGAGAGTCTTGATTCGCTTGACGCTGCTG,4810
ATTCACTTGTGCGGCCACGTGCGGATGAATAATAAAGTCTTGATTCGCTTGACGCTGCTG,17200
TGCGCAACAACTTGACACGTGGGTGTATGTCTAGAAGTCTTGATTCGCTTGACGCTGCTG,20100

# Repeated from above (series 4):
Oligonucleotide,fluorescence intensity [a.u.]
CATACCCAACCTTGTCACCCAACTTAAGATATTTGTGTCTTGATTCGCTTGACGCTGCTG,4000
CATTCAGTGCGTAACGACGCGAATAGGGCTTTGAAAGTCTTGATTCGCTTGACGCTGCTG,3380
CAGCGAACCAAAGGCACCGTGAGTAGAGGTATGAGAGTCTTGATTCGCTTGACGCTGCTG,4810
